Measurements from different studies.
Protocols differ between the studies behind these lines. Several values in a cell are separate wells, animals, samples, runs or records. ± marks the error that the study gave. ≈ marks a conversion by molar mass, not a printed value.
Organism: Staphylococcus aureus

O=C(O)c1ccc(-n2cc(CNc3ccc(Cl)c(C(F)(F)F)c3)c(-c3cccc(F)c3)n2)cc1
MBEC (ATCC 25923; biofilm, Calgary device): 2 × MIC

CC1(C)S[C@@H]2[C@H](NC(=O)[C@H](N)c3ccc(O)cc3)C(=O)N2[C@H]1C(=O)O
inhibition zone diameter (CGMCC 1.9; concentration not given, 18 h, 37 °C): 0 mm

CN[C@H](CC(C)C)C(=O)N[C@H]1C(=O)N[C@@H](CC(N)=O)C(=O)N[C@H]2C(=O)N[C@H]3C(=O)N[C@H](C(=O)N[C@H](C(=O)O)c4cc(O)cc(O)c4-c4cc3ccc4O)[C@H](O)c3ccc(c(Cl)c3)Oc3cc2cc(c3O[C@@H]2O[C@H](CO)[C@@H](O)[C@H](O)[C@H]2O[C@H]2C[C@](C)(N)[C@H](O)[C@H](C)O2)Oc2ccc(cc2Cl)[C@H]1O
bacterial load (USA300 LAC, female ICR mice, wound infection, full-thickness wound): 6.06 log CFU/g and 5.63 log CFU/g and 6.92 log CFU/g and 7.15 log CFU/g and 6.07 log CFU/g

Cc1ccc(C[C@H](NC(=O)[C@@H](Cc2ccccc2)NC(=O)[C@@H](Cc2c[nH]c3ccccc23)NC(=O)[C@@H](N)CCCN)C(=O)N[C@H](Cc2ccccc2)C(=O)N[C@@H](Cc2ccc(N)cc2)C(N)=O)cc1
IC50 (ATCC 33591, methicillin-resistant): > 20 µg/mL

[Cl][Fe]([Cl])[Cl]
MBC (24 h, 37 °C): > 1600 µM

CCCCCCCCCC(=O)N[C@@H](Cc1c[nH]c2ccccc12)C(=O)N[C@H](CC(N)=O)C(=O)N[C@@H](CC(=O)O)C(=O)N[C@@H]1C(=O)NCC(=O)N[C@@H](CCCN)C(=O)N[C@@H](CC(=O)O)C(=O)N[C@H](C)C(=O)N[C@@H](CC(=O)O)C(=O)NCC(=O)N[C@H](CO)C(=O)N[C@@H]([C@H](C)CC(=O)O)C(=O)N[C@@H](CC(=O)c2ccccc2N)C(=O)O[C@@H]1C
biofilm reduction (XTT; MRSA ATCC BAA-1556; MIC, 24 h, pre-formed biofilm): ~33%

O=c1c(O[C@@H]2O[C@H](CO)[C@@H](O)[C@H](O)[C@H]2O)c(-c2ccc(O)c(O)c2)oc2cc(O)cc(O)c12
IC50 (bacterial growth; ATCC 29213; 24 h): > 100 µM

O=C(O)CN(CCN(CC(=O)O)CC(=O)O)CC(=O)O
MBC (MRSA BAA-1707): 375 µM

O=c1c(O)c(-c2ccc(O)cc2)oc2cc(O)cc(O)c12
IC50 (bacterial growth; ATCC 29213; 24 h): > 100 µM

O=C(NCc1ccccc1)C(O)CO (stereo not drawn)
residual biofilm (crystal violet staining; 500 µg/mL, 24 h; reference: untreated): 11 ± 2%

CN[C@H](CC(C)C)C(=O)N[C@H]1C(=O)N[C@@H](CC(N)=O)C(=O)N[C@H]2C(=O)N[C@H]3C(=O)N[C@H](C(=O)N[C@H](C(=O)O)c4cc(O)cc(O)c4-c4cc3ccc4O)[C@H](O)c3ccc(c(Cl)c3)Oc3cc2cc(c3O[C@@H]2O[C@H](CO)[C@@H](O)[C@H](O)[C@H]2O[C@H]2C[C@](C)(N)[C@H](O)[C@H](C)O2)Oc2ccc(cc2Cl)[C@H]1O
isolates inhibited (clinical isolates; ≤2 µg/mL, MIC breakpoint): 72.8%

CN[C@H](CC(C)C)C(=O)N[C@H]1C(=O)N[C@@H](CC(N)=O)C(=O)N[C@H]2C(=O)N[C@H]3C(=O)N[C@H](C(=O)N[C@H](C(=O)O)c4cc(O)cc(O)c4-c4cc3ccc4O)[C@H](O)c3ccc(c(Cl)c3)Oc3cc2cc(c3O[C@@H]2O[C@H](CO)[C@@H](O)[C@H](O)[C@H]2O[C@H]2C[C@](C)(N)[C@H](O)[C@H](C)O2)Oc2ccc(cc2Cl)[C@H]1O
bacterial load (MRSA GU-1, mouse skin abscess model, skin tissue; subcutaneous, 2.5 mg/kg daily, 7 days): ~290000 CFU/g

CN[C@H](CC(C)C)C(=O)N[C@H]1C(=O)N[C@@H](CC(N)=O)C(=O)N[C@H]2C(=O)N[C@H]3C(=O)N[C@H](C(=O)N[C@H](C(=O)O)c4cc(O)cc(O)c4-c4cc3ccc4O)[C@H](O)c3ccc(c(Cl)c3)Oc3cc2cc(c3O[C@@H]2O[C@H](CO)[C@@H](O)[C@H](O)[C@H]2O[C@H]2C[C@](C)(N)[C@H](O)[C@H](C)O2)Oc2ccc(cc2Cl)[C@H]1O
MIC (broth microdilution; USA300 MRSA, LB medium; no added Zn2+): 1 µg/mL

CN[C@H](CC(C)C)C(=O)N[C@H]1C(=O)N[C@@H](CC(N)=O)C(=O)N[C@H]2C(=O)N[C@H]3C(=O)N[C@H](C(=O)N[C@H](C(=O)O)c4cc(O)cc(O)c4-c4cc3ccc4O)[C@H](O)c3ccc(c(Cl)c3)Oc3cc2cc(c3O[C@@H]2O[C@H](CO)[C@@H](O)[C@H](O)[C@H]2O[C@H]2C[C@](C)(N)[C@H](O)[C@H](C)O2)Oc2ccc(cc2Cl)[C@H]1O
log bacterial load (09057, female BALB/c mice, sepsis, liver; intraperitoneal, 20 mg/kg): 4.92 log(CFU/g) and 4.47 log(CFU/g) and 4.85 log(CFU/g) and 4.81 log(CFU/g)

OC[C@H]1O[C@@H](Oc2cc3c(O)cc(O)cc3[o+]c2-c2ccc(O)c(O)c2)[C@H](O)[C@@H](O)[C@H]1O
IC50 (bacterial growth; ATCC 29213; 24 h): 21.9 µM

CO/N=C(\C(=O)N[C@@H]1C(=O)N2C(C(=O)O)=C(COC(C)=O)CS[C@H]12)c1csc(N)n1
inhibition zone diameter (CGMCC 1.9; concentration not given, 18 h, 37 °C): 21.5 mm

O=C(NCc1ccccc1)C1COC2(CCCCC2)O1 (stereo not drawn)
residual biofilm (crystal violet staining; 500 µg/mL, 24 h; reference: untreated): 18 ± 5%

c1ccc(CN(CCN(Cc2ccccn2)Cc2ccccn2)Cc2ccccn2)nc1
MBEC (Calgary Biofilm Device; MRSA 1707 biofilm; 24 h): > 2000 µM

CNC(C)C1CCC(N)C(OC2C(N)CC(N)C(OC3OCC(C)(O)C(NC)C3O)C2O)O1 (stereo not drawn)
MIC (clinical isolate S.A10, RPMI with FBS; 24 h, 37 °C): 0.39 µM

CN[C@H](CC(C)C)C(=O)N[C@H]1C(=O)N[C@@H](CC(N)=O)C(=O)N[C@H]2C(=O)N[C@H]3C(=O)N[C@H](C(=O)N[C@H](C(=O)O)c4cc(O)cc(O)c4-c4cc3ccc4O)[C@H](O)c3ccc(c(Cl)c3)Oc3cc2cc(c3O[C@@H]2O[C@H](CO)[C@@H](O)[C@H](O)[C@H]2O[C@H]2C[C@](C)(N)[C@H](O)[C@H](C)O2)Oc2ccc(cc2Cl)[C@H]1O
lung bacterial load (MRSA ATCC 33591, mouse, pneumonia model, lung homogenate; 5 mg/kg): 4.66 CFU/mL

O=c1c2cc(Cl)ccc2[nH]c(=S)n1Cc1cccnc1
MIC90: > 100 µM

C/C(=C\C(=O)OCCCCCCCCC(=O)O)C[C@@H]1OC[C@H](C[C@@H]2O[C@H]2[C@@H](C)[C@H](C)O)[C@@H](O)[C@H]1O
decrease in bacterial count (USA300, mouse, skin wound infection, wound tissue; dose not given, day 14): 1.5 log10 units

O=C(O)c1ccc(-n2cc(CNc3ccc(Br)c(C(F)(F)F)c3)c(-c3cccc(F)c3)n2)cc1
time to kill below detection (ATCC 700699, MRSA; 4 × MIC): ≤ 10 h

CCOC(=O)CSC1=N/C(=C\c2ccc(C(C)C)cc2)C(=O)N1c1ccccc1
inhibition zone diameter (ATCC 6538; concentration not given): 0 ± 0.06 mm

C=C[C@]1(C)C[C@@H](OC(=O)CS[C@@H]2C[C@H]3CC[C@@H](C2)N3C)[C@]2(C)[C@H](C)CC[C@]3(CCC(=O)[C@H]32)[C@@H](C)[C@@H]1O
MIC50: 0.0625 µg/mL (≈ 0.121 µM)

CN[C@H](CC(C)C)C(=O)N[C@H]1C(=O)N[C@@H](CC(N)=O)C(=O)N[C@H]2C(=O)N[C@H]3C(=O)N[C@H](C(=O)N[C@H](C(=O)O)c4cc(O)cc(O)c4-c4cc3ccc4O)[C@H](O)c3ccc(c(Cl)c3)Oc3cc2cc(c3O[C@@H]2O[C@H](CO)[C@@H](O)[C@H](O)[C@H]2O[C@H]2C[C@](C)(N)[C@H](O)[C@H](C)O2)Oc2ccc(cc2Cl)[C@H]1O
MIC range (ATCC 29213): 1 µg/mL (≈ 0.69 µM)

Cc1ccc(C[C@H](NC(=O)[C@@H](Cc2ccccc2)NC(=O)[C@@H](Cc2c[nH]c3ccccc23)NC(=O)[C@@H](N)CCCN)C(=O)N[C@H](Cc2ccccc2)C(=O)N[C@H](CCCCN)C(N)=O)cc1
IC50 (ATCC 33591, methicillin-resistant): > 20 µg/mL

CCCCCCCCCCCC1NCCc2cc(O)c(O)cc21 (stereo not drawn)
inhibition zone diameter (ATCC 25923; 40 µg per disc, 24 h, 37 °C): 10.2 mm

COc1c(C)c(O)c(C)c(O)c1C(=O)/C=C/c1ccccc1
MBC (broth microdilution; ATCC 25923): 5000 µg/mL

OC[C@H]1O[C@@H](O[C@H]2[C@H](Oc3cc4c(O)cc(O)cc4[o+]c3-c3ccc(O)c(O)c3)O[C@H](CO)[C@@H](O)[C@@H]2O)[C@H](O)[C@@H](O)[C@@H]1O
IC50 (bacterial growth; ATCC 29213; 24 h): 32.4 µM

O=C(O)c1ccc(-n2cc(CNc3cc(Br)cc(C(F)(F)F)c3)c(-c3ccc(F)c(F)c3)n2)cc1
PI-stained cells (membrane permeabilisation, flow cytometry; ATCC 700699; 1 x MIC, 30 min): 18%

C[C@H]1c2cccc(O)c2C(=O)C2=C(O)[C@]3(O)C(=O)C(C(N)=O)=C(O)[C@@H](N(C)C)[C@@H]3[C@@H](O)[C@@H]21
inhibition zone diameter (CGMCC 1.9; concentration not given, 18 h, 37 °C): 18.5 mm

O=c1c(O[C@@H]2O[C@H](CO)[C@@H](O)[C@H](O)[C@H]2O)c(-c2ccc(O)cc2)oc2cc(O)cc(O)c12
IC50 (bacterial growth; ATCC 29213; 24 h): > 100 µM
